Assay results pooled from the literature.
Parts stem from different laboratories: compare values within a part only.

Sample 1
Target: Replicase polyprotein 1ab, main protease (rep, Severe acute respiratory syndrome coronavirus 2, UniProt P0DTD1)
Effect on: enzyme activity
Mode: inhibitor
Concentration: 20 µM
Setting: hit confirmation
Structure (SMILES) | inhibition
Cc1ccc(-n2sc3ccccc3c2=O)cc1 | 111%
Oc1cc(O)c2cc(O)c(-c3cc(O)c(O)c(O)c3)[o+]c2c1 | 27.5%
CC1=C(CC(=O)O)c2cc(F)ccc2/C1=C\c1ccc([S+](C)[O-])cc1 (stereo not shown) | 57.3%

Sample 2
Target: Replicase polyprotein 1ab, nsp13 helicase (rep, Severe acute respiratory syndrome coronavirus 2, UniProt P0DTD1)
Mode: inhibitor
Concentration: 20 µM
SMILES | inhibition
CN(CCCN1c2ccccc2CCc2ccccc21)CC(=O)c1ccc(Cl)cc1 | 17.7%
CN1CC[C@@]2(C)c3cc(OC(=O)Nc4ccccc4)ccc3N(C)[C@@H]12 | 3.66%
O=c1ccc2ccc(O)c(O)c2o1 | 3.18%
CC(C)CN(C[C@@H](O)[C@H](Cc1ccccc1)NC(=O)O[C@H]1CCOC1)S(=O)(=O)c1ccc(N)cc1 | 1.46%
CC1(C)OC(=O)NC1=O | 8.69%
NS(=O)(=O)NCc1csc2ccccc12 | -1.54%
C=C1CCN([C@H](C)[C@](O)(Cn2cncn2)c2ccc(F)cc2F)CC1 | 3%
CC(C)(C)C(=O)C(=Nc1ccc(Cl)cc1)NNc1ccc(Cl)cc1 | -6.19%
Cn1cc(-c2ccc3nnc(C(F)(F)c4ccc5ncccc5c4)n3n2)cn1 | 1.06%
CN(C)C(=N)NC(=N)N | 0.61%
Cc1[nH]c2ccccc2c1C[C@@H](NC(=O)[C@@H](N)Cc1c[nH]cn1)C(=O)N[C@@H](C)C(=O)N[C@@H](Cc1c[nH]c2ccccc12)C(=O)N[C@H](Cc1ccccc1)C(=O)N[C@@H](CCCCN)C(N)=O | 2.64%
COc1cc2nccc(Oc3ccc(NC(=O)C4(C(=O)Nc5ccc(F)cc5)CC4)cc3)c2cc1OC | -3.85%
COc1cccc(-c2ccc([C@@H](Oc3cc(-c4ccc(C[C@H](N)C(=O)O)cc4)nc(N)n3)C(F)(F)F)cc2)c1 | 4.53%

Sample 3
Cell line: HEK-293T
Effect on: pseudovirus infection
Method: FDA-approved drug library screen
Organism: VSV pseudotyped with SARS-CoV-2 spike
Concentration: 10 µM
Time: 16 h
Reference: vehicle-treated
SMILES | GFP-positive cells
CCCC(=O)O[C@]1(C(=O)CO)CC[C@H]2[C@@H]3CCC4=CC(=O)CC[C@]4(C)[C@H]3[C@@H](O)C[C@@]21C | 123%
CCN(CC)CCNC(=O)c1ccc(N)cc1 | 104%
O=C1CC2(CCCC2)CC(=O)N1CCCCN1CCN(c2ncccn2)CC1 | 90.2%
CO/N=C(\C(=O)N[C@@H]1C(=O)N2C(C(=O)O)=C(COC(C)=O)CS[C@H]12)c1csc(N)n1 | 115%

Sample 4
Target: Fragile X messenger ribonucleoprotein 1, C-terminal low-complexity region (Fmr1, Mus musculus, UniProt P35922)
Method: RNA Bind-n-Seq
Form: RNA
Matrix: in vitro
Concentration: 200 nM
Setting: whole 134-nt RNA, ends assumed
With: 150 mM KCl
Reference: input library
Reading: higher = stronger binding
Shared flanks, not repeated: GGGAGUUCUACAGUCCGACGAUC … UGGAAUUCUCGGGUGUCAAGG
Oligonucleotide | log2 enrichment
UGGGAGGUGGAUUUUGUUUAUUUUUUUAGCUCAUUUCCAGGGGUGGGAAUUUUUUUUUACUAUGUGUCAUGAAUAAAGUUGUUUUUGAAA | 0.246
CCUCAAGUCCUGUGCUACACAUCGUAUGUACCGAAUCGGGGAGGGGAGGAGGGAAAGUAUUAUGUUACGCCGUUCGGAUCUGCACUUCCA | 1.04
AGUCCUGUGCUACACAUCGUAUGUACCGAAUCGGGGAAAAGGGAAAAGGGGAAAAGGGAAAGUAUUAUGUUACGCCGUUCGGAUCUGCAC | 0.41
UAACUUUAGAGGAGGAGCUGAUGGAUAUGGCAGUGGACGUGGAUUUGGGGAUGGCUAUAAUGGGUAUGGAGGAGGACCUGGAGGUGGCAA | 0.452
AGUCCUGUGCUACACAUCGUAUGUACCGAAUCAAAUUUAAAUUUAAAUUUUUUUAAAAAAGUAUUAUGUUACGCCGUUCGGAUCUGCACU | -1.31
CUGUGCUACACAUCGUAUGUACCGAAUCGGGAAAAAAAGGGGAAAAAAAGGAAAAAAAGGGAAAGUAUUAUGUUACGCCGUUCGGAUCUG | -0.959
CUGUGCUACACAUCGUAUGUACCGAAUCAAACCCCCCCAAACCCCCCCAAAUUUUUUUAAAAAAGUAUUAUGUUACGCCGUUCGGAUCUG | -0.232
GUCCUGUGCUACACAUCGUAUGUACCGAAUCGGGGAAAAAGGGAAAAAGGGAAAAAGGAAAGUAUUAUGUUACGCCGUUCGGAUCUGCAC | -0.307

Some of these lines once more (sample 1):
Structure (SMILES) | inhibition
Oc1cc(O)c2cc(O)c(-c3cc(O)c(O)c(O)c3)[o+]c2c1 | 27.5%
CC1=C(CC(=O)O)c2cc(F)ccc2/C1=C\c1ccc([S+](C)[O-])cc1 (stereo not shown) | 57.3%
